{"data": "Measurements pooled from the literature", "note": "Parts stem from different laboratories: compare values within a part only. “And” joins repeats or separate records; there may be more than shown.", "UniProt P54764, sequence (whole entry, looked up)": "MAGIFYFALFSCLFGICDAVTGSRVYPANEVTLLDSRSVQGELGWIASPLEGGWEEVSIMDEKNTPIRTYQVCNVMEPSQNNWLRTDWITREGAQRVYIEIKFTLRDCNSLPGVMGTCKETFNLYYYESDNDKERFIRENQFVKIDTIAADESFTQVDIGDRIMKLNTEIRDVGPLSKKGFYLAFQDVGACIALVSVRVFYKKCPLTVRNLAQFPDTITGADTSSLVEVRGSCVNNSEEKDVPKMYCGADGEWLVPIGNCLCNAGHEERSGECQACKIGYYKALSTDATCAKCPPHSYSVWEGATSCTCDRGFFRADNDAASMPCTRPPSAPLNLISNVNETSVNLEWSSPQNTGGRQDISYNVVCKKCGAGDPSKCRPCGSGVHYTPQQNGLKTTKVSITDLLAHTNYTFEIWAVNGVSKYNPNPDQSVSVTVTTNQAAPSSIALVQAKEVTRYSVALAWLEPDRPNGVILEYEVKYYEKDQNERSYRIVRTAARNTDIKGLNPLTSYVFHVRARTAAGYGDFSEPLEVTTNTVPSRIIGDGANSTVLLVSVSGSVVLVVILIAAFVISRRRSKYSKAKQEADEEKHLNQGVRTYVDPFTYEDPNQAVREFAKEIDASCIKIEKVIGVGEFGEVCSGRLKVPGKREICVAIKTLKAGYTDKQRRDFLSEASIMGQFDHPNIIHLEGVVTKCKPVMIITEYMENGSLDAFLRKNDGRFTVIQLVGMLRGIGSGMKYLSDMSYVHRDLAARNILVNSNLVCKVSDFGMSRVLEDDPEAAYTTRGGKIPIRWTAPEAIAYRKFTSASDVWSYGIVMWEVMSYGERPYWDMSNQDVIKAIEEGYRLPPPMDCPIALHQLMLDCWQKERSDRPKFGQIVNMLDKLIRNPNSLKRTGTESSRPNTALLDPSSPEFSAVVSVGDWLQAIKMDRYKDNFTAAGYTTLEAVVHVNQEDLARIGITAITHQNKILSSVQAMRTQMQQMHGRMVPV", "UniProt Q8WU08, sequence (whole entry, looked up)": "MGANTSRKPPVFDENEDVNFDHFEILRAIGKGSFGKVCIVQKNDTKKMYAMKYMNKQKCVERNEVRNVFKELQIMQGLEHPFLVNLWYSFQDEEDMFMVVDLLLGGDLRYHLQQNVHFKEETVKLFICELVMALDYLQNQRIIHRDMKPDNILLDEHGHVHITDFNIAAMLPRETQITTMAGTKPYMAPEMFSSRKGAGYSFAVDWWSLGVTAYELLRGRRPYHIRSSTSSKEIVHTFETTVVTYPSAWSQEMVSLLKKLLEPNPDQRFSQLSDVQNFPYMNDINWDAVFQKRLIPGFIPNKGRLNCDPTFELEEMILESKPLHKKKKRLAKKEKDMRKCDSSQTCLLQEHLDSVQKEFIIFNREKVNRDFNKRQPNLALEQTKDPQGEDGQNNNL", "UniProt P17948, sequence (whole entry, looked up)": "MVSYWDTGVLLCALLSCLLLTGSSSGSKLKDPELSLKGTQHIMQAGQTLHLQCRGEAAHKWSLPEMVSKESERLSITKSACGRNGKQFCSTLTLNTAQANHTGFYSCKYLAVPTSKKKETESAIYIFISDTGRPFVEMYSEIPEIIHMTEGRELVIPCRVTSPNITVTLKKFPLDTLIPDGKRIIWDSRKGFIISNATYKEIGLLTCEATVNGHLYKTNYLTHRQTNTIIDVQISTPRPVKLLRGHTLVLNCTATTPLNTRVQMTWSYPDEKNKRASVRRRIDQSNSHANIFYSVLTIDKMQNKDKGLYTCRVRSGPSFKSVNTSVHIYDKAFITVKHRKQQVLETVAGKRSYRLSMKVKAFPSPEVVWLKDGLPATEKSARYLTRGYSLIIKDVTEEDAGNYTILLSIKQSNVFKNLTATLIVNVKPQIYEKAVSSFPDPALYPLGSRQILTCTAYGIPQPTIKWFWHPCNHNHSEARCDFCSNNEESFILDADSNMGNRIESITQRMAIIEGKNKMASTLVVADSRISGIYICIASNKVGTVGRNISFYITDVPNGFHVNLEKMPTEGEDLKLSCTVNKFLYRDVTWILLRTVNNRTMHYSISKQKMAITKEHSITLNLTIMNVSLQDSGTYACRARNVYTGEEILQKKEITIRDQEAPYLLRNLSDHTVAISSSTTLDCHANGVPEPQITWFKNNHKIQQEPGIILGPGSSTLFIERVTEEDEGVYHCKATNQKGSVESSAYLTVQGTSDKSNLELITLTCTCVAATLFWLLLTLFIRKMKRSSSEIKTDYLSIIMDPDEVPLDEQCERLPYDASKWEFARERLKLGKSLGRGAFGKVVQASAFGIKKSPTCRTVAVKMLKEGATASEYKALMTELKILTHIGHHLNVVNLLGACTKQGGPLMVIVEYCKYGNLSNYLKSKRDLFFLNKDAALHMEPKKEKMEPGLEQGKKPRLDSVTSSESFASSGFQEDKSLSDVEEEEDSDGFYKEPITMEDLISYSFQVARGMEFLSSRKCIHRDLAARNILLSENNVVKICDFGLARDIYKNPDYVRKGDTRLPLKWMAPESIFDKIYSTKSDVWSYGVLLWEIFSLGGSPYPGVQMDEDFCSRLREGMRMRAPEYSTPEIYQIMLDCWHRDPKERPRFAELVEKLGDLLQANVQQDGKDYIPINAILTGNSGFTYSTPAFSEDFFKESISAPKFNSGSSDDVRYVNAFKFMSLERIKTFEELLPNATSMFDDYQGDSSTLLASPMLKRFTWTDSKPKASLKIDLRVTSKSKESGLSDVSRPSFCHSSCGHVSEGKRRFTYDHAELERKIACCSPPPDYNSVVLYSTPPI", "UniProt Q96Q40, sequence (whole entry, looked up)": "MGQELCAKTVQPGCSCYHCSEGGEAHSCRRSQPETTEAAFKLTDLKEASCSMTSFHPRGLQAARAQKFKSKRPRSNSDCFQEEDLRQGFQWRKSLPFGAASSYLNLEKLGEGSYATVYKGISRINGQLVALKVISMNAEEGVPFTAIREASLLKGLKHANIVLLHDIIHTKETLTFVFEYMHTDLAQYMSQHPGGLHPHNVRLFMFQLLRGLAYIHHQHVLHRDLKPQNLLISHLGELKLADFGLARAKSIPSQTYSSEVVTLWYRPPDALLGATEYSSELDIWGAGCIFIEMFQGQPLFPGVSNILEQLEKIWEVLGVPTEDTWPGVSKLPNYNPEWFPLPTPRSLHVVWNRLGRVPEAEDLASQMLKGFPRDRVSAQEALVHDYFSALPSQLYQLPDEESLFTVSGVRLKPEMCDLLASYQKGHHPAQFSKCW", "UniProt Q9H3Y6, sequence (whole entry, looked up)": "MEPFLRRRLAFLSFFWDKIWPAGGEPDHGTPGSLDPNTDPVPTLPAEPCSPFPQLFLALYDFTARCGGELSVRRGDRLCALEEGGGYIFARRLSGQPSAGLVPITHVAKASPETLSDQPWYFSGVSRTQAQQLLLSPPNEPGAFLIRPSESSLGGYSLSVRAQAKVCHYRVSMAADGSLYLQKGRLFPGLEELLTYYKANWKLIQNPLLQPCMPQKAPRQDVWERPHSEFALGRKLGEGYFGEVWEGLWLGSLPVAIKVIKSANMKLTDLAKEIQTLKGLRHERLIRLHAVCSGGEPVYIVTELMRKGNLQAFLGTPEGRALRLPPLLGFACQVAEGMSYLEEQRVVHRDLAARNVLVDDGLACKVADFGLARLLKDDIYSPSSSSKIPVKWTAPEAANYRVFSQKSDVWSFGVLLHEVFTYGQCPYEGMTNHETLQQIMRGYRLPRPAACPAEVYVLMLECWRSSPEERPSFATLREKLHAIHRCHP", "UniProt P51812, sequence (whole entry, looked up)": "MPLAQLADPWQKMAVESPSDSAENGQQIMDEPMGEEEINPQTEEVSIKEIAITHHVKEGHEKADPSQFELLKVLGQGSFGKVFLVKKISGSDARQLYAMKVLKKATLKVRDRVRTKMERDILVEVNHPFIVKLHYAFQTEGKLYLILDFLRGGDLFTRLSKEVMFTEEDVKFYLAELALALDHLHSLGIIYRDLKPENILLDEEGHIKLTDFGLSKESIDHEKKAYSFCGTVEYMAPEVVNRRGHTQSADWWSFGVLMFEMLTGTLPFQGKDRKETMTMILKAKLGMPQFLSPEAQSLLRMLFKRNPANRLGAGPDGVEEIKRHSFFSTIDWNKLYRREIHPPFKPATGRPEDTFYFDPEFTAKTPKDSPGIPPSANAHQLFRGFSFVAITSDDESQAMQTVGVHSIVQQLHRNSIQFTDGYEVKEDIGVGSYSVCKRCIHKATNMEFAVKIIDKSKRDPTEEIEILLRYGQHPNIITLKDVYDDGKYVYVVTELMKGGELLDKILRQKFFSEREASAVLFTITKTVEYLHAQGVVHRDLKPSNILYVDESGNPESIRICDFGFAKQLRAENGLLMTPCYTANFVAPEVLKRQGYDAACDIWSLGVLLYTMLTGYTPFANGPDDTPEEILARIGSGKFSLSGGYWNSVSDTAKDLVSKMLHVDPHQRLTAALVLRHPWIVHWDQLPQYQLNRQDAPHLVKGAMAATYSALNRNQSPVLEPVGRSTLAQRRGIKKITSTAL", "UniProt Q00534, sequence (whole entry, looked up)": "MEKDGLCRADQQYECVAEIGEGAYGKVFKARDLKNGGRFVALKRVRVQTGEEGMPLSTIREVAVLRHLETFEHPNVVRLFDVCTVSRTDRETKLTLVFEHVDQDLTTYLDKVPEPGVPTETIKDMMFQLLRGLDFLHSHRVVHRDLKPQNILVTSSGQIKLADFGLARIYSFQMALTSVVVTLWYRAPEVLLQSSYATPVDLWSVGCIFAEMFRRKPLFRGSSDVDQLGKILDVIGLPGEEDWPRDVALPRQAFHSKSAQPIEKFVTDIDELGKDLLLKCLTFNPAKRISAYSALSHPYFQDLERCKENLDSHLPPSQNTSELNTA", "UniProt P11802, sequence (whole entry, looked up)": "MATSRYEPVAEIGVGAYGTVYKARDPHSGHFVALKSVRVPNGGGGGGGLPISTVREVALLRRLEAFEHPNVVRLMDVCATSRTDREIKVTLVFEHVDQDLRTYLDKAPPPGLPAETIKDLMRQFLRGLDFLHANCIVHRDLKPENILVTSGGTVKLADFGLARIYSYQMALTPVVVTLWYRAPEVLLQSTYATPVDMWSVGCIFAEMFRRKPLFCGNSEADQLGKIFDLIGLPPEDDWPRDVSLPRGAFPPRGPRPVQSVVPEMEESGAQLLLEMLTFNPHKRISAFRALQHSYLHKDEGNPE"}
{"data": "Sample 1", "SMILES": "CC(C)n1cnc(-c2ccc(F)cc2)c1-c1ncc(C(=O)Nc2ccc(N3CCN(C)CC3)cc2)[nH]1"}
{"assay": "Phase 2a trial, item: blood fibrinogen increased", "test system": "human, idiopathic pulmonary fibrosis", "setting": "all compound arms total, grade 2", "patients with adverse event [%]": 0}
{"assay": "Phase 2a trial, item: eosinophilia myalgia syndrome", "test system": "human, idiopathic pulmonary fibrosis", "setting": "30 mg once daily, grade 3", "patients with adverse event [%]": 0}
{"assay": "Phase 2a trial, item: haemorrhoids", "test system": "human, idiopathic pulmonary fibrosis", "setting": "60 mg once daily, grade 1", "patients with adverse event [%]": 0}
{"assay": "Phase 2a trial, item: blood glucose increased", "test system": "human, idiopathic pulmonary fibrosis", "setting": "30 mg once daily, grade 4", "patients with adverse event [%]": 0}
{"assay": "item: alkaline phosphatase increased", "test system": "patients with idiopathic pulmonary fibrosis", "setting": "dose not given, trial, compound arms pooled", "patients with adverse event [%]": 0}
{"assay": "item: prostatic calcification, maximum grade 3", "test system": "idiopathic pulmonary fibrosis patients", "setting": "oral, 60 mg once daily", "patients with adverse event [%]": 0}
{"assay": "Phase 2a trial, item: hyperuricaemia", "test system": "human, idiopathic pulmonary fibrosis", "setting": "30 mg once daily, grade 2", "patients with adverse event [%]": 0}
{"assay": "Phase 2a trial, item: respiratory, thoracic, mediastinal disorders", "test system": "human, idiopathic pulmonary fibrosis", "setting": "60 mg once daily, grade 5", "patients with adverse event [%]": 0}
{"assay": "Phase 2a trial, item: hyperlipidaemia", "test system": "human, idiopathic pulmonary fibrosis", "setting": "30 mg once daily, grade 4", "patients with adverse event [%]": 0}
{"assay": "Phase 2a trial, item: hyperlipidaemia", "test system": "human, idiopathic pulmonary fibrosis", "setting": "all compound arms total, grade 2", "patients with adverse event [%]": 0}
{"assay": "Phase 2a trial, item: blood fibrinogen increased", "test system": "human, idiopathic pulmonary fibrosis", "setting": "60 mg once daily, grade 3", "patients with adverse event [%]": 0}
{"assay": "Phase 2a trial, item: hypoalbuminaemia", "test system": "human, idiopathic pulmonary fibrosis", "setting": "30 mg once daily, grade 2", "patients with adverse event [%]": 0}
{"assay": "Phase 2a trial, item: hyperlipidaemia", "test system": "human, idiopathic pulmonary fibrosis", "setting": "30 mg once daily, grade 3", "patients with adverse event [%]": 0}
{"data": "Sample 2", "SMILES": "CC1=C(C#N)C(c2ccc3c(c2)c(NC(=O)c2ccccc2C)nn3C)C(C#N)=C(C)N1", "concentration": "1 µM"}
{"target": "STK32A (Homo sapiens, UniProt Q8WU08)", "assay": "cell-free assay, competition with immobilised ligand", "remaining binding [%]": 95}
{"target": "CDK11A (Homo sapiens, UniProt Q9UQ88)", "assay": "binding, competition with immobilised ligand", "remaining binding [%]": 100}
{"target": "DCLK2 (Homo sapiens, UniProt Q8N568)", "assay": "cell-free assay, competition with immobilised ligand", "remaining binding [%]": 100}
{"target": "PRKG2 (Homo sapiens, UniProt Q13237)", "assay": "cell-free assay, competition with immobilised ligand", "remaining binding [%]": 72}
{"target": "PKN2 (Homo sapiens, UniProt Q16513)", "assay": "cell-free assay, competition with immobilised ligand", "remaining binding [%]": 100}
{"target": "Aurora kinase B (AURKB, Homo sapiens, UniProt Q96GD4)", "assay": "cell-free assay, competition with immobilised ligand", "remaining binding [%]": 66}
{"target": "FLT1 (Homo sapiens, UniProt P17948)", "assay": "cell-free assay, competition with immobilised ligand", "remaining binding [%]": 100}
{"target": "FLT3 (Homo sapiens, UniProt P36888, D835Y)", "assay": "cell-free assay, competition with immobilised ligand", "remaining binding [%]": 82}
{"target": "WEE2 (Homo sapiens, UniProt P0C1S8)", "assay": "cell-free assay, competition with immobilised ligand", "remaining binding [%]": 100}
{"target": "WNK4 (Homo sapiens, UniProt Q96J92)", "assay": "cell-free assay, competition with immobilised ligand", "remaining binding [%]": 95}
{"target": "CDK15 (Homo sapiens, UniProt Q96Q40)", "assay": "cell-free assay, competition with immobilised ligand", "remaining binding [%]": 100}
{"target": "FLT3 (Homo sapiens, UniProt P36888, ITD)", "assay": "cell-free assay, competition with immobilised ligand", "remaining binding [%]": 96}
{"target": "Macrophage colony-stimulating factor 1 receptor, autoinhibited (CSF1R, Homo sapiens, UniProt P07333)", "assay": "cell-free assay, competition with immobilised ligand", "remaining binding [%]": 100}
{"target": "DAPK3 (Homo sapiens, UniProt O43293)", "assay": "cell-free assay, competition with immobilised ligand", "remaining binding [%]": 88}
{"target": "CAMK2D (Homo sapiens, UniProt Q13557)", "assay": "cell-free assay, competition with immobilised ligand", "remaining binding [%]": 100}
{"target": "SIK1 (Homo sapiens, UniProt P57059)", "assay": "competition binding", "remaining binding [%]": 88}
{"target": "TNNI3K (Homo sapiens, UniProt Q59H18)", "assay": "cell-free assay, competition with immobilised ligand", "remaining binding [%]": 96}
{"target": "KIT (Homo sapiens, UniProt P10721, D816H)", "assay": "cell-free assay, competition with immobilised ligand", "remaining binding [%]": 64}
{"target": "HIPK3 (Homo sapiens, UniProt Q9H422)", "assay": "cell-free assay, competition with immobilised ligand", "remaining binding [%]": 73}
{"target": "Ribosomal protein S6 kinase alpha-3, C-terminal kinase domain (RPS6KA3, Homo sapiens, UniProt P51812)", "assay": "cell-free assay, competition with immobilised ligand", "remaining binding [%]": 94}
{"target": "CDKL2 (Homo sapiens, UniProt Q92772)", "assay": "binding, competition with immobilised ligand", "remaining binding [%]": 100}
{"target": "STK39 (Homo sapiens, UniProt Q9UEW8)", "assay": "cell-free assay, competition with immobilised ligand", "remaining binding [%]": 92}
{"target": "Tyrosine-protein kinase ABL1, phosphorylated (ABL1, Homo sapiens, UniProt P00519)", "assay": "cell-free assay, competition with immobilised ligand", "remaining binding [%]": 66}
{"target": "NEK6 (Homo sapiens, UniProt Q9HC98)", "assay": "cell-free assay, competition with immobilised ligand", "remaining binding [%]": 100}
{"target": "Tyrosine-protein kinase ABL1, phosphorylated (ABL1, Homo sapiens, UniProt P00519, Y253F)", "assay": "cell-free assay, competition with immobilised ligand", "remaining binding [%]": 82}
{"data": "Sample 3", "SMILES": "CC(=O)N[C@@H](Cc1c[nH]c2ccccc12)C(=O)N[C@@H](CCC(=O)C=[N+]=[N-])C(=O)OC(C)C", "species": "C57BL/6 CES1-/- mice, EL4 tumour", "route": "subcutaneous", "dose": "0.3 mg/kg/day DON equivalent", "time": "5 days"}
{"assay": "UPLC-MS/MS, item: isobutyrylcarnitine", "test system": "EL4, tumour", "setting": "normalised to tissue mass", "scale": "higher = more metabolite", "metabolite peak intensity": "1.32e+08 a.u. and 2.96e+07 a.u. and 1.11e+08 a.u. and 2.58e+07 a.u. and 8.3e+07 a.u. and 9.74e+07 a.u."}
{"assay": "UPLC-MS/MS metabolomics, item: glycine", "test system": "EL4 tumour", "setting": "normalised to tissue mass", "metabolite peak intensity": "4.79e+08 a.u. and 4.19e+08 a.u. and 4.65e+08 a.u. and 3.13e+08 a.u. and 5.02e+08 a.u. and 4.76e+08 a.u."}
{"assay": "UPLC-MS/MS, item: 7-methylguanine", "test system": "EL4 tumour", "metabolite peak intensity": "2.85e+06 a.u. and 1.93e+06 a.u. and 4.14e+06 a.u. and 3.75e+06 a.u. and 2.73e+06 a.u."}
{"assay": "LC-MS/MS metabolomics, item: 2'-deoxyadenosine", "test system": "EL4 tumour", "setting": "normalised to tissue mass", "scale": "higher = more metabolite", "metabolite peak intensity": "50900 a.u. and 41600 a.u. and 72300 a.u. and 178000 a.u. and 94800 a.u. and 56800 a.u."}
{"assay": "UPLC-MS/MS, item: CMP", "test system": "EL4 tumour", "metabolite peak intensity": "3.02e+07 a.u. and 1.32e+07 a.u. and 2.43e+07 a.u. and 1.82e+07 a.u. and 3.44e+07 a.u. and 2.53e+07 a.u."}
{"assay": "UPLC-MS/MS metabolomics, item: N-acetylaspartate", "test system": "EL4 tumour", "setting": "normalised to tissue mass", "scale": "higher = more metabolite", "metabolite peak intensity": "7.71e+08 a.u. and 4.17e+08 a.u. and 2.96e+08 a.u. and 3.56e+08 a.u. and 4.24e+08 a.u. and 5.43e+08 a.u."}
{"assay": "UPLC-MS/MS metabolomics, item: gamma-glutamylphenylalanine", "test system": "EL4 tumour", "setting": "normalised to tissue mass", "metabolite peak intensity": "699000 a.u. and 470000 a.u. and 790000 a.u. and 723000 a.u. and 461000 a.u. and 251000 a.u."}
{"assay": "LC-MS/MS metabolomics, item: 2-methylbutyrylcarnitine (C5)", "test system": "EL4 tumour", "setting": "normalised to tissue mass", "scale": "higher = more metabolite", "metabolite peak intensity": "1.02e+07 a.u. and 1.08e+07 a.u. and 4.83e+06 a.u. and 3.86e+06 a.u. and 1.25e+07 a.u. and 1.46e+07 a.u."}
{"assay": "UPLC-MS/MS metabolomics, item: N1-methylinosine", "test system": "EL4 tumour", "setting": "normalised to tissue mass", "scale": "higher = more metabolite", "metabolite peak intensity": "982000 a.u. and 1.33e+06 a.u. and 831000 a.u. and 654000 a.u. and 1.21e+06 a.u. and 879000 a.u."}
{"data": "Sample 4", "SMILES": "O=C(c1cc2cc(O)ccc2[nH]1)c1cc2cc(O)ccc2[nH]1", "read-out": "enzyme activity", "mode": "inhibitor", "concentration": "0.5 µM", "reference": "control"}
{"target": "RPS6KA6 (Homo sapiens, UniProt Q9UK32)", "remaining activity [%]": 26.7}
{"target": "ABL1 (Homo sapiens, UniProt P00519)", "remaining activity [%]": 27.8}
{"target": "HIPK2 (Homo sapiens, UniProt Q9H2X6)", "remaining activity [%]": 102}
{"target": "EPHB4 (Homo sapiens, UniProt P54760)", "remaining activity [%]": 89.3}
{"target": "BLK (Homo sapiens, UniProt P51451)", "remaining activity [%]": 49.7}
{"target": "WNK3 (Homo sapiens, UniProt Q9BYP7)", "remaining activity [%]": 74.6}
{"target": "MAP4K4 (Homo sapiens, UniProt O95819)", "remaining activity [%]": 6.63}
{"target": "STK16 (Homo sapiens, UniProt O75716)", "remaining activity [%]": 54.6}
{"target": "Cyclin-dependent kinase 6, with cyclin D3 (CDK6, Homo sapiens, UniProt Q00534)", "remaining activity [%]": 50.3}
{"target": "STK17A (Homo sapiens, UniProt Q9UEE5)", "remaining activity [%]": 51.7}
{"target": "AXL (Homo sapiens, UniProt P30530)", "remaining activity [%]": 90.1}
{"target": "TSSK2 (Homo sapiens, UniProt Q96PF2)", "remaining activity [%]": 93.6}
{"target": "MAPKAPK3 (Homo sapiens, UniProt Q16644)", "remaining activity [%]": 91.2}
{"target": "SRMS (Homo sapiens, UniProt Q9H3Y6)", "remaining activity [%]": 93.7}
{"target": "EPHB1 (Homo sapiens, UniProt P54762)", "remaining activity [%]": 97}
{"target": "RPS6KA5 (Homo sapiens, UniProt O75582)", "remaining activity [%]": 96.1}
{"target": "EPHA4 (Homo sapiens, UniProt P54764)", "remaining activity [%]": 109}
{"target": "Cyclin-dependent kinase 1, with cyclin B (CDK1, Homo sapiens, UniProt P06493)", "remaining activity [%]": 60.5}
{"target": "PDPK1 (Homo sapiens, UniProt O15530)", "remaining activity [%]": 97.2}
{"target": "Cyclin-dependent kinase 4, with cyclin D3 (CDK4, Homo sapiens, UniProt P11802)", "remaining activity [%]": 105}
{"target": "HIPK4 (Homo sapiens, UniProt Q8NE63)", "remaining activity [%]": 99.8}
{"target": "DYRK3 (Homo sapiens, UniProt O43781)", "remaining activity [%]": 115}
{"target": "PHKG1 (Homo sapiens, UniProt Q16816)", "remaining activity [%]": 72.1}
{"target": "CAMK2B (Homo sapiens, UniProt Q13554)", "remaining activity [%]": 93.4}
{"note": "For quick reference, copied from above (sample 1):"}
{"assay": "item: alkaline phosphatase increased", "test system": "patients with idiopathic pulmonary fibrosis", "setting": "dose not given, trial, compound arms pooled", "patients with adverse event [%]": 0}
{"assay": "item: prostatic calcification, maximum grade 3", "test system": "idiopathic pulmonary fibrosis patients", "setting": "oral, 60 mg once daily", "patients with adverse event [%]": 0}
{"assay": "Phase 2a trial, item: hyperuricaemia", "test system": "human, idiopathic pulmonary fibrosis", "setting": "30 mg once daily, grade 2", "patients with adverse event [%]": 0}
{"assay": "Phase 2a trial, item: respiratory, thoracic, mediastinal disorders", "test system": "human, idiopathic pulmonary fibrosis", "setting": "60 mg once daily, grade 5", "patients with adverse event [%]": 0}
